Experimental data from different studies.
Each numbered part is a random draw from the data of one study; scales do not carry over between parts.

Sample 1 — method: RNAcompete; form: RNA; medium: in vitro; concentration: 20 nM; notes: 7-mer, probes averaged, single round; reference: mean of 7-mers; reading: higher = stronger binding
Target: PABPC1L2, full length, GST fusion (mouse, UniProt A0ABA7IW68)
Construct (chain): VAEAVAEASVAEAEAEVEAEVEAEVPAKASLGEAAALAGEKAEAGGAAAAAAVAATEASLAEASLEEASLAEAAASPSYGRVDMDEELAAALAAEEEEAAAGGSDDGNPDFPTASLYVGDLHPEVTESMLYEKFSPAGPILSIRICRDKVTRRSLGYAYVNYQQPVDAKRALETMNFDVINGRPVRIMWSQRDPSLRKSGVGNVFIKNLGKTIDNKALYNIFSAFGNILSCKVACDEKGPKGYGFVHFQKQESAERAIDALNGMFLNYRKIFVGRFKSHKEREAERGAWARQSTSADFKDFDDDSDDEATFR
Oligonucleotide	7-mer Z-score
ACAUGUA	0.0623
GUGUAAG	-0.0228
AUAUACU	-0.117

Sample 2 — method: RNA Bind-n-Seq; form: RNA; medium: in vitro; concentration: 1 µM; notes: whole 134-nt RNA, ends assumed; together with: 150 mM KCl; reference: input library; reading: higher = stronger binding
Target: Ras GTPase-activating protein-binding protein 1, C-terminal RGG region (G3BP1, Homo sapiens, UniProt Q13283)
Chain of UniProt Q13283 (whole entry, looked up): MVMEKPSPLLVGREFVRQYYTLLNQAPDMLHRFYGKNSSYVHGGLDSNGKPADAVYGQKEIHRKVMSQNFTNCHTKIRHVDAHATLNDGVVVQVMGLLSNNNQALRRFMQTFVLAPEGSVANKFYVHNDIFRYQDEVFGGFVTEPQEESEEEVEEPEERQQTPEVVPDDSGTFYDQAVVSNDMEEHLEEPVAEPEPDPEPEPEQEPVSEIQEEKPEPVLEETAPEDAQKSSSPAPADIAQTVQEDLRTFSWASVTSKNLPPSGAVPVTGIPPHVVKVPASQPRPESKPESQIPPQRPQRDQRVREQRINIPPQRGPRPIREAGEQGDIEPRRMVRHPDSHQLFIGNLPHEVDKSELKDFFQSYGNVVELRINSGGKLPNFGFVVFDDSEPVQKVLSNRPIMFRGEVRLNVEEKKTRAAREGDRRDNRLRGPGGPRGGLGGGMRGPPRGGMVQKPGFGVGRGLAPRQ
Oligonucleotide	log2 enrichment
GGGAGUUCUACAGUCCGACGAUCCCUGUGCUACACAUCGUAUGUACCGAAUCGGGCCCCCCGGGCCCCCCGGGGCCCCCCGGGAAAGUAUUAUGUUACGCCGUUCGGAUCUGCUGGAAUUCUCGGGUGUCAAGG	-2.05
GGGAGUUCUACAGUCCGACGAUCUGGGAGGUGGAUUUUGUUUAUUUUUUUAGCUCAUUUCCAGGGGUGGGAAUUUUUUUUUAAUAUGUGUCAUGAAUAGAGUUGUUUUUGAAAUGGAAUUCUCGGGUGUCAAGG	1.62
GGGAGUUCUACAGUCCGACGAUCUGUUCACAUUUUAAGGAUGACAAGUCCACUAUAUGUAACACGUAAGAAUGCUAUCCUGGCAGUAGACACAGGGCCAGAAUAAACUGGCAAUGGAAUUCUCGGGUGUCAAGG	-0.987

Other studies, line by line
Molecule	target	test	system	conditions	scale	measurement	result
GGGAGUUCUACAGUCCGACGAUCUCCACUACCAUUGUAGAUCCCCUUUCACUAAAUAUAAGACAUGCUAGCUAGCCUGGCUCAGUGAGCUGAUUAGCGUAUGGCAGGGGGCCUAGGAAGUACAGAGCAUCCUGUGGAAUUCUCGGGUGCCAA	RNA binding protein fox-1 homolog 2, RRM domain, GST-SBP tag (RBFOX2, Homo sapiens, UniProt O43251-10, residues 100-194)	RNA Bind-n-Seq	RNA, in vitro	365 nM, natural RNA segment, single round, ends assumed	reference: no-protein control, higher = stronger binding	RBNS enrichment (R)	0.434
PhoQ, residues 284 288 289 292 302 303 SNGLAW	PhoP, residues 12 14 15 18 19 TTLRV (Escherichia coli, UniProt P23836)	Sort-seq, refers to: YFP reporter	E. coli	PhoQ-PhoP variant library, together with: 10 µM Mg2+	reference: high Mg2+ state, higher = stronger signaling	fold induction	8.37

Some of these lines once more (sample 2):
Oligonucleotide	log2 enrichment
GGGAGUUCUACAGUCCGACGAUCUGGGAGGUGGAUUUUGUUUAUUUUUUUAGCUCAUUUCCAGGGGUGGGAAUUUUUUUUUAAUAUGUGUCAUGAAUAGAGUUGUUUUUGAAAUGGAAUUCUCGGGUGUCAAGG	1.62
